Assay results collected from several papers.
Protocols differ between the studies behind these lines. Numbers after ± are the reported error.

| Compound | assay | test system | conditions | terminal half-life [h] |
| --- | --- | --- | --- | --- |
| CCOc1c([C@H](C)n2nc(C)c3c(N)ncnc32)cc(Cl)c(F)c1[C@@H]1CNC(=O)C1 |  | healthy fasted humans, plasma | oral, 10 mg | 13.2 ± 3.1 |
| CC(C)n1cc(C#N)c2cc(-n3cc(C(=O)O)cn3)ccc21 |  | healthy male humans | oral, higher single doses | 11.9 to 13.3 |
| CC(C)(Sc1ccncc1-c1ccc(C#N)c2ccccc12)C(=O)O |  | humans, male, normal renal function, fasted, plasma | oral, 15 mg | 13 |
| COc1cc(Nc2ncc3c(n2)-c2ccc(Cl)cc2C(c2c(F)cccc2OC)=NC3)ccc1C(=O)O |  | human, plasma | oral, dose not given, multiple doses | ~21 |
| O=C1Nc2ccc(Cl)cc2[C@@](C#CC2CC2)(C(F)(F)F)O1 |  | healthy human, serum | oral, 400 mg single dose, with: ezetimibe | 121 ± 97 |
| O=C(Nc1nc2cccc(-c3ccc(CN4CCS(=O)(=O)CC4)cc3)n2n1)C1CC1 |  | human male | oral, 450 mg once daily, steady state, mean | 7.09 |
| CC[C@H](C)[C@H](NC(=O)[C@H](CC(C)C)NC(=O)[C@H](Cc1c[nH]c2ccccc12)NC(=O)[C@H](C)NC(=O)[C@@H](NC(=O)[C@H](Cc1ccccc1)NC(=O)[C@H](CC(=O)O)NC(=O)[C@H](CCCNC(=N)N)NC(=O)[C@H](C)NC(=O)[C@H](C)NC(=O)[C@H](CC(C)C)NC(=O)[C@H](C)NC(=O)[C@H](CC(=O)O)NC(=O)[C@H](CC(C)C)NC(=O)[C@@H](NC(=O)[C@@H](NC(=O)[C@H](C)NC(=O)[C@H](CC(C)C)NC(=O)[C@H](CCC(=O)O)NC(=O)[C@H](CO)NC(=O)[C@H](CO)NC(=O)[C@H](Cc1ccccc1)NC(=O)[C@@H](NC(=O)CNC(=O)[C@H](CCC(=O)O)NC(=O)CNC(=O)[C@@H](N)Cc1cnc[nH]1)[C@@H](C)O)[C@@H](C)O)[C@@H](C)CC)[C@@H](C)CC)C(=O)N[C@@H](C)C(=O)N[C@H](C(=O)N[C@@H](CCCCN)C(=O)N[C@H](C(=O)N[C@H](C(=O)N[C@@H](CC(=O)O)C(=O)N[C@@H](CCCCN)C(=O)N[C@@H](CCCCN)C(=O)N[C@@H](CCCCN)C(=O)N[C@@H](CCCCN)C(=O)N[C@@H](CCCCN)C(=O)N[C@@H](CCCCN)C(N)=O)[C@@H](C)O)[C@@H](C)CC)[C@@H](C)O |  | healthy human subjects, plasma | subcutaneous, 10 mg once weekly, day 36 after 6 doses, steady state, mean | 2.8 |
| O=c1c(-n2ccnn2)c[nH]n1-c1cc(N2CCOCC2)ncn1 |  | healthy male humans | oral, with: atazanavir | 6.9 |
| C=CC(=O)Nc1cc(Nc2ncc(C(=O)OC(C)C)c(-c3cn(C)c4ccccc34)n2)c(OC)cc1N(C)CCN(C)C |  | human, fasted | oral, 20 mg single dose, geometric mean | 18.1 |
| C[C@H]1CN(C2COC2)CCN1c1ccc(Nc2cc(-c3ccnc(N4CCn5c(cc6c5CC(C)(C)C6)C4=O)c3CO)cn(C)c2=O)nc1 |  | healthy human, both sexes, plasma | oral, 100 mg, with: itraconazole oral solution 200 mg, steady state | 15.9 ± 3.02 |
| C=C(C)[C@@H]1CC[C@]2(NCCN3CCS(=O)(=O)CC3)CC[C@]3(C)[C@H](CC[C@@H]4[C@@]5(C)CC=C(C6=CC[C@@](CF)(C(=O)O)CC6)C(C)(C)[C@@H]5CC[C@]43C)[C@@H]12 |  | human | oral, 320 mg once daily, day 14, multiple ascending dose | 22.4 |
| COc1cccc(OCCCN)c1-c1cc(Nc2cnc(C#N)cn2)n[nH]1 | noncompartmental analysis | human, plasma | IV infusion, 105 mg/m^2 over 1 h, cycle 1 day 1, geometric mean | 21.7 |
